Published values from different studies.
Numbered parts are unrelated; each lists some results of a single study. Positions count from the first letter of the parent shown.

Sample 1
Target: CREB3L4, bZIP domain (human)
Method: DHFR protein complementation
Matrix: yeast
Setting: single substitutions, most at no-binding floor
Reference: wild-type JUN-FOS pair
Reading: higher = stronger binding
Endpoint: binding fitness
Starting sequence: JUN, bZIP domain (human); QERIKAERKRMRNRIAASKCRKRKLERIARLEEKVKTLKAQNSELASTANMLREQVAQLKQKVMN; partner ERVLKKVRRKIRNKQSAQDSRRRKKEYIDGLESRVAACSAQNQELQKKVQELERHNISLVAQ
V35I: -1.54 natural log
Q41E: -1.01 natural log
I28E: -1.47 natural log
A40S: -1.52 natural log
M51D: -1.45 natural log
V35A: -1.42 natural log
E32L: -1.2 natural log
S47A: -1.24 natural log
E32K: -1.49 natural log
A57T: -1.46 natural log
E54V: -1.51 natural log
E32V: -1.45 natural log
I28G: -1.39 natural log
K36I: -1.57 natural log
K36H: -1.53 natural log

Sample 2
Target: Sal-like protein 4, full length isoform A (SALL4, Homo sapiens, UniProt Q9UJQ4, residues 1-1053)
UniProt Q9UJQ4, sequence (whole entry, looked up): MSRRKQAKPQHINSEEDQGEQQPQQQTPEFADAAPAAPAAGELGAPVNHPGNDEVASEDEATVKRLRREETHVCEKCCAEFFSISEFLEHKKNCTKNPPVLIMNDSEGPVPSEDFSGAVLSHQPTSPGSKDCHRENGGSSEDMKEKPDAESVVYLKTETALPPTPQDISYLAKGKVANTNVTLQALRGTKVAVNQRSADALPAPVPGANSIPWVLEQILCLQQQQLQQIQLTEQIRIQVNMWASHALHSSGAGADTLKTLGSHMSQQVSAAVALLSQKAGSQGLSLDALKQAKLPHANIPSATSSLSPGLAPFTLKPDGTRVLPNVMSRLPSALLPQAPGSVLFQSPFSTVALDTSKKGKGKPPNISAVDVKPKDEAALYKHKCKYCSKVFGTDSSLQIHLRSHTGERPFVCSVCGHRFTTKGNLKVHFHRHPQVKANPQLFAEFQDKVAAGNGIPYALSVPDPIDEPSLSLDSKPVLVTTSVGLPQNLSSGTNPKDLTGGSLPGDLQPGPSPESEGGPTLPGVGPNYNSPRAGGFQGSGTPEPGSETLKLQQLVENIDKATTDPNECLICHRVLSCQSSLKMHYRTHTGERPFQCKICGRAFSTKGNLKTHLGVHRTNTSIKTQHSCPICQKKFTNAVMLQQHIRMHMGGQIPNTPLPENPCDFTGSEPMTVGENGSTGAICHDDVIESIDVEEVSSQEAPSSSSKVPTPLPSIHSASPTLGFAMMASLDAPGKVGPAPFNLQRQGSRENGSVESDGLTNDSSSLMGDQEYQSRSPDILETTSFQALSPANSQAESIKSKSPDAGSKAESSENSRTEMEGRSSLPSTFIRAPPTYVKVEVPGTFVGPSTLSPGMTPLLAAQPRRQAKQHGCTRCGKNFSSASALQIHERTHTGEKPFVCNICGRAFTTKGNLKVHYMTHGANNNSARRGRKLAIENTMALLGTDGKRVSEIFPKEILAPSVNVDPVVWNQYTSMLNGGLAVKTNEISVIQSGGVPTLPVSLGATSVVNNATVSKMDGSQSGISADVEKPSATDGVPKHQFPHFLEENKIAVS
Method: universal PBM
Form: double-stranded DNA, one strand shown
Matrix: in vitro
Tested at: 600 nM
Setting: 8-mer, flanks averaged, mean of replicates
Reading: higher = stronger binding
Endpoint: E-score
AGGACCAA: -0.165
ATTTTTTG: 0.342
CAGCTGTA: -0.172
TCCTTCCA: 0.00792
CCAAGCTC: -0.255
GCGTAGTA: -0.0485
AGATGCGA: -0.0114
AAGGTTAT: 0.203
CCACATTC: -0.011
CAGCTTCC: -0.279
GATTTGAA: 0.243
CTGGCCAG: -0.235
CTAAGTGC: -0.0673
ATCTTGTA: 0.163
ATCCGTCA: 0.0184
GGACCTAC: -0.0482
ATAACCTA: 0.286
AGCCCCTA: -0.223
GCTAAACA: 0.112
CGCCTTAG: -0.218
ACTTCTGA: 0.0914
GAAAGAGA: 0.0245
CCTCAGCA: -0.239
GTGCGACA: -0.24
CACGTATG: 0.0793

Sample 3
Target: ABI1, truncated, D143A, DHFR fusion (Arabidopsis thaliana)
Method: DHFR PCA, deep sequencing
Matrix: yeast
Setting: methotrexate growth selection, single substitutions
Added: (+)-ABA 4.8 µM
Reference: wild-type fitted maximum
Reading: higher = stronger binding
Endpoint: relative binding score
Starting sequence: PYL1, truncated, DHFR fusion (Arabidopsis thaliana); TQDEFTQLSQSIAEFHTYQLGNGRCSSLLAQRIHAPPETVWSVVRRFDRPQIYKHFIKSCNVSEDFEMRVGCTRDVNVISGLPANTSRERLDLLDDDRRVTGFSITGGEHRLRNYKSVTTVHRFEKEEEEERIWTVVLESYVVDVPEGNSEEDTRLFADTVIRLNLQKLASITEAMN; partner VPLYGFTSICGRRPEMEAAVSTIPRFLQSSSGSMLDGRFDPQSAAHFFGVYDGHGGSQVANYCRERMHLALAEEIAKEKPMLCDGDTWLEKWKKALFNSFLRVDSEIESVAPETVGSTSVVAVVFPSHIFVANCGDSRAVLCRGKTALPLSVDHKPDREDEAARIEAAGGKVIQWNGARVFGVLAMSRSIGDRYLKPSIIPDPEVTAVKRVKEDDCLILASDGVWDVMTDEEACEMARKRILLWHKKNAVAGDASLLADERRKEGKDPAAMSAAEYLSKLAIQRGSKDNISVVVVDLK
S11F: 59.6%
V145I: 91.6%
R69N: 56.3%
M68Y: 45.3%
S117M: -9.69%
T154R: -0.813%
P146D: -12.7%
V62E: 5.22%
T135F: -7.98%
Q31Y: 17.3%
Y115D: -15.4%
V142N: 8.82%
L82G: 26.4%
P50T: -18.8%
A13D: 65.4%
K58D: 29.8%
D92M: 6.49%
T17S: 62.2%
E139D: 0.935%
M176Q: 69.1%
I133L: 76.3%
R88W: 16.9%

Sample 4
Target: Prothrombin, mature alpha-thrombin (F2, Homo sapiens, UniProt P00734)
Method: aptamer microarray, sandwich
Form: DNA with 2'F-ANA
Matrix: in vitro
Tested at: 200 nM
Setting: whole 15-mer aptamer, many near background
Added: Cy3 exosite-II aptamer, 400 nM
Reading: higher = stronger binding
Endpoint: mean fluorescence intensity
Sequence: GGTTGGTGTGGTTGG
2'F-ANA at 6 7 9 10 11 13 15: 148 a.u.
2'F-ANA at 1 2 3 4 5 6 7 9 10 12 13 14 15: 53.2 a.u.
2'F-ANA at 6 8 9 12 15: 758 a.u.
2'F-ANA at 2 6 8 9 10 13 14 15: 80.7 a.u.
2'F-ANA at 1 2 5 9 10 11 14 15: 48.3 a.u.
2'F-ANA at 2 5 8 10 14 15: 70.7 a.u.
2'F-ANA at 2 4 11 13 14: 89.3 a.u.
2'F-ANA at 2 5 6 7 8 10 11 13 14: 47.5 a.u.
2'F-ANA at 1 3 5 8 11 13 14: 48.1 a.u.
2'F-ANA at 3 4 5 6 8 14: 47.6 a.u.
2'F-ANA at 1 10 11 14: 115 a.u.
2'F-ANA at 3 4 5 9 12 15: 189 a.u.
2'F-ANA at 2 4 6 10 11 12 15: 98.6 a.u.
2'F-ANA at 2 4 5 9 10 11 12 13 14 15: 43.5 a.u.
2'F-ANA at 2 3 4 5 6 7 12: 210 a.u.
2'F-ANA at 4 5 7 8 9 10 11 15: 55.3 a.u.
2'F-ANA at 1 2 4 5 8 9 11 14 15: 48 a.u.
2'F-ANA at 2 3 5 6 11 15: 68.8 a.u.
2'F-ANA at 1 2 3 14 15: 70.4 a.u.

Sample 5
Target: Protein C-ets-1 (ETS1, Homo sapiens, UniProt P14921, residues 1-441, full length assumed)
Method: protein-binding microarray
Form: double-stranded DNA, one strand shown
Matrix: in vitro
Tested at: not given
Setting: k-mer, scored over probes, only values ≥0.25
Reading: higher = stronger binding
Endpoint: E-score
Target sequence (chain): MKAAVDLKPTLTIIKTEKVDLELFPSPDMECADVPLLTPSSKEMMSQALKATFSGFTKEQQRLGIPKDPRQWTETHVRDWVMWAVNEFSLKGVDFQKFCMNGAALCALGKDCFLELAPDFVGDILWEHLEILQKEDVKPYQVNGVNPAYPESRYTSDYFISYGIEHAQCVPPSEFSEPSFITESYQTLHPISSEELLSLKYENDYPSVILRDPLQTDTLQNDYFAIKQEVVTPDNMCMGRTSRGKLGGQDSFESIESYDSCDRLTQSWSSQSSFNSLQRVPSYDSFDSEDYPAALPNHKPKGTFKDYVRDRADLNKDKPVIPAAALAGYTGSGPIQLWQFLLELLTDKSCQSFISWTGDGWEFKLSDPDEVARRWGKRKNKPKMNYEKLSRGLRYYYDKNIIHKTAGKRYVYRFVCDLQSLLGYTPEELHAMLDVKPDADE
GGCCGGAC: 0.377
CCTTCCGA: 0.269
AAAACGGA: 0.256
AATTTCCC: 0.321
AACAGGAC: 0.301
CCGGTAAA: 0.392
ACCCCGTC: 0.252
ACCGGTTA: 0.303
CAGGAAAC: 0.468
GGAGCGGA: 0.378
AATCGGAA: 0.362

Sample 6
Target: RNA binding protein fox-1 homolog 2, RRM domain, GST-SBP tag (RBFOX2, Homo sapiens, UniProt O43251-10, residues 100-194)
Method: RNA Bind-n-Seq
Form: RNA
Matrix: in vitro
Tested at: 365 nM
Setting: natural RNA segment, single round, ends assumed
Reference: no-protein control
Reading: higher = stronger binding
Endpoint: RBNS enrichment (R)
Target sequence (chain): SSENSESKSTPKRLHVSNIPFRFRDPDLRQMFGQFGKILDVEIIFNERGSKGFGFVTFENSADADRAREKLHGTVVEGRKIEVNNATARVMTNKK
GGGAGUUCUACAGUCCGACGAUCUUCUUUUUAGCUAUUCCUACAUACUUGUGUGUCAGCCCAUGUAUGUAGGUGUGACCGAUUUCAAGCAGCCCCUCCACCUGGCCUUUCUCUCUCUCUCUCUGUCUCUGUCUUGGAAUUCUCGGGUGCCAA: 0.635
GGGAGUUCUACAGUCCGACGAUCAUGGACUUCAGGAUCCACUAGACAGUUUUCAGUUUGCUUGGAGGUAGCUGGGUAAUCAAAAAUGUUUAGUCAUUGAUUCAAUGUGAACGAUUACGGUCUUUAUGACCAAGUGGAAUUCUCGGGUGCCAA: 0.472
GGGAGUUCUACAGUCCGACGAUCAGCCCCGAAUUUGAAUCUCAAAGUCCAGGGUAUGAAUCUCAGAGCCCCGGGUAUGAACCGCAGAACUCUGGAGAUGGCGUUCAGAAUUCUGAGUUCAAAACCCAUAGCCCUGGAAUUCUCGGGUGCCAA: 0.645
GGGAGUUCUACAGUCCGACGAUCAAAUUUGUAGACUUCUAAAUAGAAUAAACACUUGCAGCAGAUGGCAUUGCCUACAUUUUUCCCUGAAGCUUUCGUAAUAAGUCAUCGUAAGUCGAGGUUUUUGGUGUGACUGGAAUUCUCGGGUGCCAA: 0.737
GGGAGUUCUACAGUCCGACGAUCGGAAAUAAAACAGUUUUUGUUUGUUUCAGCUGGCCUCCUAUUUUGGACCCCCUGGGAAAGACAUGCAGUGUAGAUAAUGACUUUAGUAGCUCUCCAAUGAGAGCCUGACUUGGAAUUCUCGGGUGCCAA: 0.495
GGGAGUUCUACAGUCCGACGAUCAAAAAUUAACAUGUCACAAUGUAACGGAUGACCAUAUGCACAAUUCCAUGAAUUAAAUCUGUUUCCUGUGUUAGUCAGUAUUCUUAAAUAAAAUUUAUAAUUGAAACAUGUGGAAUUCUCGGGUGCCAA: 0.443
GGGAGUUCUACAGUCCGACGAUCAACCAGUGCUUUGGCCACUUUCAUGCUAGCAGAGUGGACCUUGGUCCUCCCUGCUUAGAAAGCUACUUUAGAAGCCAUUGUAGCCACAGUGGAAAGUCAAGGUUUGUGUCUGGAAUUCUCGGGUGCCAA: 0.279
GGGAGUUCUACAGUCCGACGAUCACUACACUGUUCCUCGUAUGUGAAGGAGGCAGUGCUGACUCCGUGAGUGUGAGACACGUGCUUUGAACUGCUUUUCUAUUCAUGGAGCACUCCAUAGUCUCAAACUGUCCUGGAAUUCUCGGGUGCCAA: 0.438
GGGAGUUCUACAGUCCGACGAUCUCUAUUAAUACAUCUAAAUUUUCUAGUAUAUCCUGACAUUUUCCAUUCCUGCUCUGAAGUCACUUUUAGUUUUGUGUUUUAGUCAGAUAGUACCACUAAUUUUUGUAAUUUGGAAUUCUCGGGUGCCAA: 0.453
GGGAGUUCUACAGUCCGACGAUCUGCCACAUUCAGCCCUGCCCAGGAAGGAACACAUGACCCUUCUGUCUGUGACUGUUGCUGAGUCUCUGUCUCAUGUCGUAGAAUUGUGGAUAAUUGUCUAGUGACCCUCUUGGAAUUCUCGGGUGCCAA: 0.251
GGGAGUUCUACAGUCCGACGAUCAUUCACGGUGAGACAUUUUGCCACCUUCUUGUGUAUAUUACUUGGCAUGAGAUGAUAUUGUACUUGUAUAGGAUUCUAGCAAUUCAUAAUAAAUAUGUAAGACUAGGCUUUGGAAUUCUCGGGUGCCAA: 0.615
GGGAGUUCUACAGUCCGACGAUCUGCCCCCACAGCACCCACAGAUCCCUGGCCCUUCCAGGAGUAAGUCCUGGGCAGGCAGAGCUGGGGUUGGCCUGAUCCCACCUGCCUUGCUCUUGGAAAGGACAUCAGGUUGGAAUUCUCGGGUGCCAA: 0.817

Further values, each from its own experiment
PhoQ, residues 284 288 289 292 302 303 AGCYAI  fold induction (PhoP, residues 12 14 15 18 19 NIMAP (Escherichia coli, UniProt P23836); Sort-seq, refers to: YFP reporter; E. coli; PhoQ-PhoP variant library, added: 10 µM Mg2+; reference: high Mg2+ state, higher = stronger signaling): 0.669

For quick reference, copied from above (sample 1):
A40S: -1.52 natural log
E32L: -1.2 natural log
E54V: -1.51 natural log
V35I: -1.54 natural log
E32V: -1.45 natural log
V35A: -1.42 natural log
S47A: -1.24 natural log
E32K: -1.49 natural log
K36I: -1.57 natural log
A57T: -1.46 natural log
M51D: -1.45 natural log
Q41E: -1.01 natural log
I28E: -1.47 natural log
